{"data": "Experimental data collected from several papers", "note": "Each line is one published result; not all experiments were run side by side. ± gives the spread as reported."}
{"Structure (SMILES)": "CNCc1ccc(-c2[nH]c3cc(F)cc4c3c2CCNC4=O)cc1", "system": "human", "conditions": "oral, 80 mg once daily, day 1, single dose, median", "quantity": "Tmax", "result": "1.5 h"}
{"Structure (SMILES)": "CNC(=O)c1ccc(-c2cnc3ncc(Cc4ccc5ncccc5c4)n3n2)cc1F", "system": "human, normal hepatic function, plasma", "conditions": "oral, 200 mg single dose", "quantity": "Tmax (median)", "result": "1 h"}
{"Structure (SMILES)": "O=C(O)COC[C@H]1CC[C@H](COC(=O)N(c2ccccc2)c2ccc(Cl)cc2)CC1", "system": "human", "conditions": "oral, 400 µg once daily, day 21", "quantity": "Tmax at steady state", "result": "8 h"}
{"Structure (SMILES)": "CN(Cc1cnc2nc(N)nc(N)c2n1)c1ccc(C(=O)N[C@@H](CCC(=O)O)C(=O)O)cc1", "system": "human, plasma", "conditions": "oral, 10 mg, with: apremilast 30 mg twice daily", "quantity": "tmax", "result": "0.98 h"}
{"Structure (SMILES)": "Cc1c(Cl)c(C)[n+]([O-])c(Cl)c1-c1noc(-c2cc(O)c(O)c([N+](=O)[O-])c2)n1", "assay": "LC-MS/MS", "system": "healthy male human, fasted, plasma", "conditions": "oral, 50 mg single dose, tablet", "quantity": "Tmax (median)", "result": "2 h"}
{"Structure (SMILES)": "CC(C)(C)OC[C@@H]1C(=O)NCCN1C(=O)C[C@H](N)Cc1cc(F)c(F)cc1F", "system": "human", "conditions": "5 mg once daily, day 10, median", "quantity": "Tmax at steady state", "result": "5 h"}
{"Structure (SMILES)": "CCOc1cc([C@@H](CS(C)(=O)=O)N2C(=O)c3cccc(NC(C)=O)c3C2=O)ccc1OC", "system": "healthy human, male, plasma", "conditions": "oral, 20 mg, with: ketoconazole multiple-dose", "how to read": "reference: compound alone", "quantity": "tmax difference", "result": "0.74 h"}
{"Structure (SMILES)": "CC(C)C[C@H](NC(=O)[C@H](CCc1ccccc1)NC(=O)CN1CCOCC1)C(=O)N[C@@H](Cc1ccccc1)C(=O)N[C@@H](CC(C)C)C(=O)[C@@]1(C)CO1", "system": "human patients, plasma", "conditions": "intravenous infusion 10 min, 20 mg/m^2, day 1 of cycle 1, KRd regimen", "quantity": "Tmax (median)", "result": "0.15 h"}
{"Structure (SMILES)": "CS(=O)(=O)Nc1ccc(C(=O)O[C@@H](Cc2c(Cl)c[n+]([O-])cc2Cl)c2ccc(OC(F)F)c(OCC3CC3)c2)cc1OCC1CC1", "system": "human, plasma", "conditions": "inhaled, 800 µg single dose, single-dose dry powder inhaler", "quantity": "tmax", "result": "2 h"}
{"Structure (SMILES)": "COc1ccc(-c2ccc3c(N4CCOC[C@@H]4C)nc(N4CCOC[C@@H]4C)nc3n2)cc1CO", "system": "human, plasma", "conditions": "oral, 20 mg twice daily, oral solution", "quantity": "Tmax at steady state", "result": "0.25 to 1 h"}
{"Structure (SMILES)": "CC[C@H](C)[C@H](NC(=O)[C@H](CC(C)C)NC(=O)[C@H](Cc1c[nH]c2ccccc12)NC(=O)[C@H](C)NC(=O)[C@@H](NC(=O)[C@H](Cc1ccccc1)NC(=O)[C@H](CC(=O)O)NC(=O)[C@H](CCCNC(=N)N)NC(=O)[C@H](C)NC(=O)[C@H](C)NC(=O)[C@H](CC(C)C)NC(=O)[C@H](C)NC(=O)[C@H](CC(=O)O)NC(=O)[C@H](CC(C)C)NC(=O)[C@@H](NC(=O)[C@@H](NC(=O)[C@H](C)NC(=O)[C@H](CC(C)C)NC(=O)[C@H](CCC(=O)O)NC(=O)[C@H](CO)NC(=O)[C@H](CO)NC(=O)[C@H](Cc1ccccc1)NC(=O)[C@@H](NC(=O)CNC(=O)[C@H](CCC(=O)O)NC(=O)CNC(=O)[C@@H](N)Cc1cnc[nH]1)[C@@H](C)O)[C@@H](C)O)[C@@H](C)CC)[C@@H](C)CC)C(=O)N[C@@H](C)C(=O)N[C@H](C(=O)N[C@@H](CCCCN)C(=O)N[C@H](C(=O)N[C@H](C(=O)N[C@@H](CC(=O)O)C(=O)N[C@@H](CCCCN)C(=O)N[C@@H](CCCCN)C(=O)N[C@@H](CCCCN)C(=O)N[C@@H](CCCCN)C(=O)N[C@@H](CCCCN)C(=O)N[C@@H](CCCCN)C(N)=O)[C@@H](C)O)[C@@H](C)CC)[C@@H](C)O", "system": "healthy human subjects, plasma", "conditions": "subcutaneous, 10 mg once weekly, day 36 after 6 doses, steady state, median", "quantity": "tmax", "result": "0.53 h"}
{"Structure (SMILES)": "CCCCCCCC(=O)N[C@H](CN1CCCC1)[C@H](O)c1ccc2c(c1)OCCO2", "system": "human healthy adults, plasma", "conditions": "oral, 84 mg twice daily, median, with: paroxetine 30 mg daily", "quantity": "tmax", "result": "3 h"}
{"Structure (SMILES)": "Cc1ccc(NC(=O)c2ccc(CN3CCN(C)CC3)cc2)cc1Nc1nccc(-c2cncc(-c3oncc3C)c2)n1", "system": "older healthy human adults, plasma", "conditions": "oral, 100 mg single dose, fed, mean", "quantity": "Tmax", "result": "4.33 h"}
{"Structure (SMILES)": "O=C(c1cccnc1-c1ccncc1)N1CCC(O)(Cc2ccccc2)CC1", "system": "healthy human, plasma", "conditions": "oral, 400 mg once daily, day 1", "quantity": "tmax", "result": "0.33 h"}
{"Structure (SMILES)": "COc1ccc2nc([S@@+]([O-])Cc3ncc(C)c(OC)c3C)[nH]c2c1", "assay": "HPLC", "system": "human CYP2C19 poor metabolizers, plasma", "conditions": "oral, 40 mg/day, day 1, pantoprazole", "quantity": "Tmax", "result": "3.6 ± 0.89 h"}
{"Structure (SMILES)": "CNC(=O)c1cccc2cc(Oc3ccnc4cc(OCC5(N)CC5)c(OC)cc34)ccc12", "system": "human patients continuous arm, plasma", "conditions": "oral, 10 mg, single dose cycle 1 day 1", "quantity": "Tmax median", "result": "1 h"}
{"Structure (SMILES)": "CCOc1c([C@H](C)n2nc(C)c3c(N)ncnc32)cc(Cl)c(F)c1[C@@H]1CNC(=O)C1", "system": "healthy fasted humans, plasma", "conditions": "oral, 10 mg", "quantity": "Tmax median", "result": "1 h"}
